Experimental data collected from several papers.
Numbered parts are unrelated; each lists some results of a single study.
Sequence of UniProt P00519 (whole entry, unmodified, looked up): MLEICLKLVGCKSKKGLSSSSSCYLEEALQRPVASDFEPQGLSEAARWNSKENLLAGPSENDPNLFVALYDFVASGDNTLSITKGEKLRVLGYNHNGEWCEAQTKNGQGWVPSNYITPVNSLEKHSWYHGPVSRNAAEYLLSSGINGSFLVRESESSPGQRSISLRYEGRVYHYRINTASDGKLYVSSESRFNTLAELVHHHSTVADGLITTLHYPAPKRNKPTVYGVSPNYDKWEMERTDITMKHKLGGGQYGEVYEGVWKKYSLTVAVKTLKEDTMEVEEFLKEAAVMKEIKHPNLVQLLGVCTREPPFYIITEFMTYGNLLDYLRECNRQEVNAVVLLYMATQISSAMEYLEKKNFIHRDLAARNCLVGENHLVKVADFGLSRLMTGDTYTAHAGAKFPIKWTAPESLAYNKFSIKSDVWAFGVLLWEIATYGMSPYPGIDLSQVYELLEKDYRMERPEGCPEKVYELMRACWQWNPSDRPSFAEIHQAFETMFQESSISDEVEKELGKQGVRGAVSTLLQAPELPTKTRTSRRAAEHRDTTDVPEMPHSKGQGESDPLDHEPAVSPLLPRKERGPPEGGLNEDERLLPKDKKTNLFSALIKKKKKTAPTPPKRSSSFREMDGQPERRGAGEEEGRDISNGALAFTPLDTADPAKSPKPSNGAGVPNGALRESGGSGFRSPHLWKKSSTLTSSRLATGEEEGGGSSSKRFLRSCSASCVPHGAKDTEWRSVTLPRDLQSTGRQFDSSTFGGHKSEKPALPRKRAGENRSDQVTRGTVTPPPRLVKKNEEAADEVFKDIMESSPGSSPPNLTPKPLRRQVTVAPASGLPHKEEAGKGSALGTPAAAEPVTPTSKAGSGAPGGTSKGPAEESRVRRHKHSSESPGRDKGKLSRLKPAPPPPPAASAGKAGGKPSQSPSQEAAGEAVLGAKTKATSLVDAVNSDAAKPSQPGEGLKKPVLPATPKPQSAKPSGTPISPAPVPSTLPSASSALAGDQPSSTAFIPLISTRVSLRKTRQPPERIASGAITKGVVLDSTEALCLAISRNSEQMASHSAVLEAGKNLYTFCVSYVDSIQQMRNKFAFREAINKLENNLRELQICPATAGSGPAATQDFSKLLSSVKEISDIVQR

Sample 1
Target: Prothrombin, mature alpha-thrombin (F2, Homo sapiens, UniProt P00734)
Method: aptamer microarray, sandwich
Form: DNA with 2'F-ANA
Medium: in vitro
Concentration: 200 nM
Setting: whole 15-mer aptamer, many near background
Together with: Cy3 exosite-II aptamer, 400 nM
Reading: higher = stronger binding
Sequence: GGTTGGTGTGGTTGG
Modification	mean fluorescence intensity
2'F-ANA at 1 3 4 9 10 13 15	57.7 a.u.
2'F-ANA at 2 4 6 7 8 10 11 15	77.4 a.u.
2'F-ANA at 3 4 5 8 12 13 15	137 a.u.
2'F-ANA at 2 5 7 9 10 11 12 14	45.5 a.u.
2'F-ANA at 1 3 4 8 10 11	64.3 a.u.
2'F-ANA at 8 9 11 15	477 a.u.
2'F-ANA at 1 3 4 6 9 11 12 14 15	116 a.u.
2'F-ANA at 1 3 4 5 9 13 15	59.7 a.u.

Sample 2
Target: Interferon regulatory factor 7, full length, phosphomimetic (IRF7, Homo sapiens, UniProt Q92985, residues 1-503, S101K/S471D/S472D/S475D/S476D/S477D/S483D/S484D/S487D)
Sequence of UniProt Q92985 (whole entry, unmodified, looked up): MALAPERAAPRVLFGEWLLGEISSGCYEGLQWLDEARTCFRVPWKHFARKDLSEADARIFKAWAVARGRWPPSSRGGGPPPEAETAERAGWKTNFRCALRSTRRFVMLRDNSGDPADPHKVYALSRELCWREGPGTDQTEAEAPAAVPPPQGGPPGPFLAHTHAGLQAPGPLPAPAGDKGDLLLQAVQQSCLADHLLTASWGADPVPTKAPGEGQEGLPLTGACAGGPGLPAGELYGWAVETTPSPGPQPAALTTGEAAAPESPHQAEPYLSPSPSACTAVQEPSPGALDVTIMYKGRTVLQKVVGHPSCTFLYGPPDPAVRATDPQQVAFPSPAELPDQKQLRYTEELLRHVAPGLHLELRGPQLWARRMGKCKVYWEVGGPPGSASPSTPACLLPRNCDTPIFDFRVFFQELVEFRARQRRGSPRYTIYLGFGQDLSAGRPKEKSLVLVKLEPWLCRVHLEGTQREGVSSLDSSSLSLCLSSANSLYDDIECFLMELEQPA
Method: protein-binding microarray
Form: double-stranded DNA, one strand shown
Medium: in vitro
Concentration: 250 nM
Setting: 60-bp whole probe
Together with: salmon DNA 0.4 mg/ml
Reference: random background probes
Reading: higher = stronger binding
Shared flanks, not repeated: GCCTAGCAC … GTCTTGATTCGCTTGACGCTGCTG
Sequence	log fluorescence
TTAGGTATCGGTCACGGTTAGTGCTAG	0.545 z-score
GCACGTGACTGTTTCCCAATGTGCTAG	0.41 z-score
TCATACCTGTATATCTTACTGTGCTAG	0.123 z-score
GCAGGTCTGGACCCAGACTCGTGCTAG	-0.55 z-score
GACGGTCTCGGACTGGCGACGTGCTAG	-0.0671 z-score
ATAGATATCGGGACTGGATTAGTGCTA	-0.126 z-score
GACGGTATCGGGTTGCGGGACGTGCTA	2.23 z-score
CAACTTTTTTTAATTGAGAAGTGCTAG	0.333 z-score

Sample 3
Species: mouse
Medium: microsomes or S9
Concentration: 2 µM
Time: 0.5 h
Compound	remaining compound
O=C1c2ccccc2CN1C(c1cccc(F)c1)c1nc2cncnc2[nH]1 (stereo not shown)	99.7%
Nc1ccc(C(=O)OCc2nc3c(ccc4ccccc43)[nH]2)cc1	1.76%
Cc1ncc2c(c1-c1nn[nH]n1)-c1ccccc1CC2	83.3%

Other studies, line by line
Compound	target or system	test	system	conditions	scale	endpoint	value
CNC(=O)Nc1ccc2c(c1)C1(CC2)OC(=O)N(CC(=O)N(Cc2ccc(F)cc2)[C@@H](C)C(F)(F)F)C1=O (single isomer, unassigned)	ABL1 (Homo sapiens, UniProt P00519, F317I)	KINOMEscan	–	1 µM, F317I mutant, nonphosphorylated	reference: control	remaining binding	78%
CC(C)C[C@@H]1NC(=O)[C@H](CC(C)C)NC(=O)[C@@H](CC(C)C)NC(=O)[C@@H](CC(C)C)NC(=O)[C@H](C(C)C)NC(=O)[C@H](CC(C)C)NC(=O)[C@@H](CC(C)C)NC1=O	–	PRP chromatography estimate	1,9-decadiene/PBS	pH 7.4	–	logD	2.3
CC(=O)O[C@]1(C(C)=O)CC[C@H]2[C@@H]3C=C(C)C4=CC(=O)CC[C@@H]4[C@H]3CC[C@@]21C	mouse MPNST tumor cells	high-content immunofluorescence imaging, refers to: nuclear SOX9	–	10 µM, 12 h, mean of 2 replicates	reference: DMSO control, higher = more nuclear SOX9	nuclear SOX9 intensity	88.4 % of DMSO
